Measured values pooled from the literature.
Compare with care: the assays were run in different laboratories.
Cell line: SK-BR-3

With `CC(C)c1ccc(N(C)c2ccc3c(c2)OCC[C@H]3CNc2cnccc2C(=O)O)cc1` the IC50 was 0.00714 µM (cell viability, CellTiter-Glo; 7 days).
`COC(=O)N1c2ccc3c(nc(Cc4ccccc4)n3[C@@H]3CCC[C@@H](C(=O)O)C3)c2CC[C@@H]1C` gave an IC50 of 2.87 µM (cell growth or viability, ATP luminescence; 10 days).
The IC50 of `COc1cccc(N2C(=O)CS/C2=N\N=C\c2cccc3cc4ccccc4nc23)c1` is reported as > 50 µM (cell growth or viability, MTT; 48 h).
`CNS(=O)(=O)Nc1nccc(Cc2c(C)c3ccc(Oc4ncccc4F)cc3oc2=O)c1F` has an IC50 of > 1 µM (cell viability; 7 days).
With `CCN(C(=O)c1cc(F)ccc1Oc1nncnc1N1CCC2(C1)CN([C@H](CCCN(C)CCOC)C(C)C)C2)C(C)C` the GI50 was > 10 µM (cell growth or viability; 7 days).
The IC50 of `COc1ccc(N2C(=O)CS/C2=N\N=C\c2cccc3cc4ccccc4nc23)cc1` is reported as > 50 µM (cell growth or viability, MTT; 48 h).
With `Cc1sc2c(c1C)C(c1ccc(Cl)cc1)=N[C@@H](CC(=O)NCCN(C)CCCCNC(=O)CCCCOc1cccc3c1C(=O)N([C@H]1CCC(=O)NC1=O)C3=O)c1nnc(C)n1-2` the IC50 was 1.13 µM (cell growth or viability, CCK-8; 72 h).
With `CCOc1cncc(-c2ccc(NC(=O)C3(c4ccnc(NS(=O)(=O)C5CC5)n4)CCOCC3)nc2)n1` the IC50 was 0.039 µM (cell growth or viability, ATP luminescence; 72 h).
For `CCOC(=O)/C=C1\S/C(=N\N=C\c2cccc3cc4ccccc4nc23)N(c2ccc(OC)cc2)C1=O`, the IC50 was > 50 µM (cell growth or viability, MTT; 48 h).
